Experimental data collected from several papers.
Numbered parts are unrelated; each lists some results of a single study. Substitutions count along the parent as printed.

Block 1
Target: ABI1, truncated, D143A, DHFR fusion (Arabidopsis thaliana)
Technique: DHFR PCA, deep sequencing
Matrix: yeast
Setting: methotrexate growth selection, single substitutions
Together with: (+)-ABA 200 µM
Relative to: wild-type fitted maximum
Reading: higher = stronger binding
Parent: PYL1, truncated, DHFR fusion (Arabidopsis thaliana); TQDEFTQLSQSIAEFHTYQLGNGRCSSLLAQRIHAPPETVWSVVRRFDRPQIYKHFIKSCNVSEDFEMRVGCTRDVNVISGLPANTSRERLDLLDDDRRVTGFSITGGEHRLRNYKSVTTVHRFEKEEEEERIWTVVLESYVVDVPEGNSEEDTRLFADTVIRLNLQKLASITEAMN
Substitution | relative binding score [%]
V118L | 84
T73W | 96.2
Y115W | 60.2
R123Q | 108
I79W | 103
C60S | 79.3
S11L | 88.2
R132T | 113
R163C | 66.6
E38F | 60

Block 2
Target: CCNA2, cyclin fold, Cln2 fusion (human)
Technique: yeast growth competition, sequencing
Matrix: yeast
Setting: weak parent motif
Relative to: not given
Reading: higher = stronger binding
Parent: MASTL docking peptide (human); PMIAKNLMCELDE
Substitution | normalised enrichment score
E10I | 0.154
E10W | 0.6
A4P | 0.305
E10P | 0.0126
A4C | -0.304
M2S | 0.394
D12V | 0.162
C9H | -0.0157
C9P | 0.0158
M2I | -0.162

Block 3
Target: Phosphate system positive regulatory protein PHO4, full length, GST-tagged (PHO4, Saccharomyces cerevisiae, UniProt P07270, residues 1-312)
Technique: competition protein-binding microarray
Form: double-stranded DNA, one strand shown
Matrix: in vitro
Concentration: 2 µM
Setting: whole 60-bp probe, lowest competitor level
Together with: Cbf1 competitor, 0.05 µM
Reading: higher = stronger binding
Residues (chain): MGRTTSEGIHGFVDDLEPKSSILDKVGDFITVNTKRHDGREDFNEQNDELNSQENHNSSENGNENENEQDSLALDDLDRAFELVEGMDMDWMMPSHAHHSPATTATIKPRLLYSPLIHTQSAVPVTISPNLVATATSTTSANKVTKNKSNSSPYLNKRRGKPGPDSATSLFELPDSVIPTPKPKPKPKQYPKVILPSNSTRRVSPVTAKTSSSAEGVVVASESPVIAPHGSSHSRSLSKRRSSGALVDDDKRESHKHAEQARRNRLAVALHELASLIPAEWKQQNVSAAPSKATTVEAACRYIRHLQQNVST
Sequence | fluorescence intensity [a.u.]
TCGTCTGGGTTGGGACCGATGATAATAACGTAGTTAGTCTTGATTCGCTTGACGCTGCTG | 2990
GTAGCTTCGCGGCAATGCCTGATCCGACAGCCGCAAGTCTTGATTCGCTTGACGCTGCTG | 2580
TGGCGGCCGCCATCTCGCGTGAGATCGCCTTTGGACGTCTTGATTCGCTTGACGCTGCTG | 3110
AGCAGAATTACCCTCCACGTTGATTGTCTGCGAGGCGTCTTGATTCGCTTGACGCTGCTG | 11100
AAAGCGGTAATTTGCCCAGTGGGTGCAGATATCTATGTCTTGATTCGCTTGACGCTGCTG | 4230
CGCTTCAGGACAGTACACGTGATCCAGCATAAGATGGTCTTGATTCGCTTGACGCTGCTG | 14100
TGCGCAACAACTTGATGCGTGGGTGTATGTCTAGAAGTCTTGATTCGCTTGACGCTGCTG | 8630
GGTCCGGAACTGGTGTGCATGACAGCCGCGGAATGCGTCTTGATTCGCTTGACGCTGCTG | 5300
TATATTAGGTCGAGTCACGGGTGGTGTCCCTCAAGCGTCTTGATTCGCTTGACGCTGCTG | 5870
TTTAATCGCTCTACCCACGTTTTTTTATCCAGTGCTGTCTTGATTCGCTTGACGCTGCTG | 14300
TGACACTTCATGTTACACGTGAGGAGCTTCACCTTCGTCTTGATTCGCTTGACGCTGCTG | 11700
CTAACGAAGGTTTCACACGTGTTTTACAAGCCAAGTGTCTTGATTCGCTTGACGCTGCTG | 19100

Other studies, line by line
Substance | target | assay | system | setting | how to read | measurement | result
PhoQ, residues 284 288 289 292 302 303 WVSSAF | PhoP, residues 12 14 15 18 19 LYFRQ (Escherichia coli, UniProt P23836) | Sort-seq, measured: YFP reporter | E. coli | PhoQ-PhoP variant library, together with: 10 µM Mg2+ | relative to: high Mg2+ state, higher = stronger signaling | fold induction | 9.85
